# Assay results of several laboratories.
# Each line is one published result; not all experiments were run side by side. “And” joins repeats or separate records; there may be more than shown.
# STING1 H232R: Stimulator of interferon genes protein (STING1, Homo sapiens, UniProt Q86WV6, H232R)
SMILES,target or system,test,test system,setting,scale,quantity,result
O=C(N[C@@H](CCCCNC(=O)c1ccc([N+](=O)[O-])o1)c1nc2ccccc2[nH]1)c1ccc(-c2ncccn2)cc1,STING1 H232R,"reporter gene, inhibitor",THP1-Dual KI-hSTING-R232,"24 h, 1 h preincubation, together with: diABZI 500 nM",,EC50,9500 nM
Cc1ncsc1-c1ccc(C(C)NC(=O)C2CC(O)CN2C(=O)C(NC(=O)CCCCCCCCCCN2CCCC(Nc3ncc(Cl)c(Nc4ccccc4S(=O)(=O)C(C)C)n3)C2)C(C)(C)C)cc1 (centres unmarked),22Rv1,"RNA-seq, measured: NUFIP2 mRNA",,concentration not given,baseline: DMSO,log2 fold change,-1.19
CC(C)c1ccc(N(C)c2ccc3c(c2)OCC[C@H]3CNc2cnccc2C(=O)O)cc1,LOUCY,"cell viability, CellTiter-Glo",,7 days,,IC50,2.47 nM
CO[C@@H]1[C@@H](OC(N)=O)[C@@H](O)[C@H](Oc2ccc3c(O)c(NC(=O)c4ccc(O)c(CC=C(C)C)c4)c(=O)oc3c2C)OC1(C)C,DLD-1 BRCA2-/-,,,"200 µM, mean of replicates A, B",baseline: untreated,colony survival,0.326%
COC1CN([C@H]2CC[C@H]([C@@]3(C)Oc4c(Cl)cc(C(=O)NCc5c(SC)cc(C)[nH]c5=O)c(C)c4O3)CC2)C1,,"RNA-seq, measured: PLD2","human, whole blood","dose not given, 24 h",baseline: pretreatment baseline,log2 fold change,1.92
O=C(N[C@@H](CCNC(=O)c1ccc([N+](=O)[O-])o1)c1nc2ccccc2[nH]1)c1ccc(C#CC2CC2)cc1,STING1 H232R,"reporter gene, inhibitor",THP1-Dual KI-hSTING-R232,"24 h, 1 h preincubation, together with: diABZI 500 nM",,EC50,5100 nM
CN1CCCNC(=O)c2cccc(c2)C(=O)NCCCN(C)CCCNc2cccc3c2C(=O)c2cccc(c2C3=O)NCCC1,SAS,"RNA-Seq, measured: B3GAT3 mRNA",,"1 µM, 6 h",baseline: untreated cells,log2 fold change,-0.891
CNS(=O)(=O)Nc1nccc(Cc2c(C)c3ccc(Oc4ncccc4F)cc3oc2=O)c1F,OCI-Ly10,cell viability,,7 days,,IC50,3.05 nM
COc1ccccc1-c1ccncc1C(=O)Nc1nnc(OCc2ccc(Cl)cc2)s1,DLD-1 parental,,,"0.125 µM, single replicate",,colony count,78 and 75 and 65 and 81 and 68
Cn1ncc2cc(-c3cncc(Cl)c3N3CCC4(CCNC4=O)CC3)ccc21,LS174T,"gene expression, microarray, measured: IGLL1 mRNA",,"concentration not given, 4 h",baseline: untreated cells,log2 fold change,1.01
CCN(CC)CC(=O)Nc1cccc(-n2cc(-c3ccc4ccc(-c5cn(-c6cccc(NC(=O)CN(CC)CC)c6)nn5)cc4c3)nn2)c1,RCC4,"PCR angiogenesis array, measured: FLT1",,"5 x IC50, 6 h, normoxia",baseline: untreated,fold regulation,1.06

# Some of these lines once more:
SMILES,target or system,test,test system,setting,scale,quantity,result
O=C(N[C@@H](CCCCNC(=O)c1ccc([N+](=O)[O-])o1)c1nc2ccccc2[nH]1)c1ccc(-c2ncccn2)cc1,STING1 H232R,"reporter gene, inhibitor",THP1-Dual KI-hSTING-R232,"24 h, 1 h preincubation, together with: diABZI 500 nM",,EC50,9500 nM
Cc1ncsc1-c1ccc(C(C)NC(=O)C2CC(O)CN2C(=O)C(NC(=O)CCCCCCCCCCN2CCCC(Nc3ncc(Cl)c(Nc4ccccc4S(=O)(=O)C(C)C)n3)C2)C(C)(C)C)cc1 (centres unmarked),22Rv1,"RNA-seq, measured: NUFIP2 mRNA",,concentration not given,baseline: DMSO,log2 fold change,-1.19
